Results from different studies.
A part holds a random share of what one study measured. Changes are numbered by the printed parent chain.

Block 1
Target: CCND3, cyclin fold, Cln2 fusion (human)
Technique: yeast growth competition, sequencing
Sample: yeast
Setting: weak parent motif
Baseline: not given
Reading: higher = stronger binding
Starting sequence: PKN2 docking peptide (human); VSAVRKLDFSDTM
Variant | normalised enrichment score
L7F | 0.0334
L7A | 0.19
D11L | 0.361
V4Y | 0.207
R5M | 0.466
K6F | 0.24
R5H | -0.169
D8V | 0.445
S2Y | 0.294
L7Q | 0.0622
F9C | -0.0105
R5C | 0.398
S10V | 0.34
D11F | 0.0974
T12K | 0.695
R5P | -0.213
V4I | 1.61

Block 2
Target: ABI1, truncated, D143A, DHFR fusion (Arabidopsis thaliana)
Technique: DHFR PCA, deep sequencing
Sample: yeast
Setting: methotrexate growth selection, single substitutions
With: (+)-ABA 0.0091 µM
Baseline: wild-type fitted maximum
Reading: higher = stronger binding
Starting sequence: PYL1, truncated, DHFR fusion (Arabidopsis thaliana); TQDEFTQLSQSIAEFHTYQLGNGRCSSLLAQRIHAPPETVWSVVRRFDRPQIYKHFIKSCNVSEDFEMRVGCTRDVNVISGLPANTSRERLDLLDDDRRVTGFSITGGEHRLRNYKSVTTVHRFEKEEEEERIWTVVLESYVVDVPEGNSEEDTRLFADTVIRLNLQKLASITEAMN; partner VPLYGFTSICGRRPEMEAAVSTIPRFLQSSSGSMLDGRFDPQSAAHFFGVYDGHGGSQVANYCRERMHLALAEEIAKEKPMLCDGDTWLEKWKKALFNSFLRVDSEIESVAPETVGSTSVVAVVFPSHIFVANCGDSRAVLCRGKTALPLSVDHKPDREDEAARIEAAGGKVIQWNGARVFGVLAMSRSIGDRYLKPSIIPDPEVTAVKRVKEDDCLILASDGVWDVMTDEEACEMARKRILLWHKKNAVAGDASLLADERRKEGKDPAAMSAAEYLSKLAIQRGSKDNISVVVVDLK
Variant | relative binding score [%]
E152F | 0.392
E129I | 3.25
N114K | 0.639
L169T | -1.61
S63G | 40.8
P50A | -7.28
W134D | 19.1
A175W | 0.691
F157N | -3.38
G81C | 33.9
V43L | 16.8
E151F | 2.88
D97A | 24.9
L8C | 4.71
E131K | 63.4
P83F | 5.99
S117Y | 4.24

Block 3
Target: Prothrombin, mature alpha-thrombin (F2, Homo sapiens, UniProt P00734)
Technique: aptamer microarray, sandwich
Molecule type: DNA with 2'F-ANA
Sample: in vitro
Concentration: 200 nM
Setting: whole 15-mer aptamer, many near background
With: Cy3 exosite-II aptamer, 400 nM
Reading: higher = stronger binding
Strand: GGTTGGTGTGGTTGG
Modification | mean fluorescence intensity [a.u.]
2'F-ANA at 1 4 6 8 13 14 | 116
2'F-ANA at 1 2 7 11 13 14 15 | 53.3
2'F-ANA at 1 2 6 7 8 9 11 13 15 | 147
2'F-ANA at 2 6 7 10 11 12 14 15 | 124
2'F-ANA at 1 2 3 5 8 10 11 12 | 135
2'F-ANA at 1 4 5 6 7 9 13 14 | 44.7
2'F-ANA at 1 2 3 4 5 9 10 13 14 15 | 48.7
2'F-ANA at 1 3 4 5 6 7 8 12 15 | 118
2'F-ANA at 1 2 4 11 13 15 | 79.6
2'F-ANA at 2 4 5 6 13 14 | 44.7
2'F-ANA at 1 3 6 7 8 9 11 12 13 14 15 | 109
2'F-ANA at 1 4 8 9 12 14 | 57.1
2'F-ANA at 1 2 4 6 7 9 10 11 12 13 | 59.8
2'F-ANA at 3 4 8 9 13 14 | 291
2'F-ANA at 1 3 5 6 7 12 13 15 | 80.3
2'F-ANA at 2 3 5 7 11 15 | 83
2'F-ANA at 1 3 4 5 6 8 9 12 13 14 15 | 50.1
2'F-ANA at 2 3 5 7 8 13 14 15 | 56.5
2'F-ANA at 2 3 4 5 9 | 113
2'F-ANA at 1 2 3 6 9 12 | 386
2'F-ANA at 2 4 7 8 10 12 14 15 | 68.3
2'F-ANA at 4 5 7 9 11 12 13 14 15 | 47.2
2'F-ANA at 1 2 4 8 12 14 15 | 67.3
2'F-ANA at 2 4 5 6 7 8 11 13 | 52
2'F-ANA at 1 10 12 13 | 67

Block 4
Target: Hepatocyte nuclear factor 3-alpha (Foxa1, Mus musculus, UniProt P35582, residues 1-468, full length assumed)
UniProt P35582, sequence (whole entry, looked up): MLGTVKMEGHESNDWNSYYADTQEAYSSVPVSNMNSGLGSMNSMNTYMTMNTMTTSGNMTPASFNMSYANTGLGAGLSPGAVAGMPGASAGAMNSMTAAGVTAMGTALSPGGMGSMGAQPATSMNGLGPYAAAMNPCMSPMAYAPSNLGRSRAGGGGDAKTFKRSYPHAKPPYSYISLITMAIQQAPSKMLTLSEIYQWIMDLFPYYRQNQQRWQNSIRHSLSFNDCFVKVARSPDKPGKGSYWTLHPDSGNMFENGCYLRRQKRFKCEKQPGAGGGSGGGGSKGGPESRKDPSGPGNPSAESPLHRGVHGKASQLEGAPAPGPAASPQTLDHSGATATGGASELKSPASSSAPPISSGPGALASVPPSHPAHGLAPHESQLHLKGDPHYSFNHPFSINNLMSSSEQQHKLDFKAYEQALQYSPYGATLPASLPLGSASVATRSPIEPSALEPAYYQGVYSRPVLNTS
Technique: EMSA with sequencing
Molecule type: double-stranded DNA, one strand shown
Sample: in vitro
Concentration: 10 and 20 nM
Setting: whole designed probe, mean of two concentrations, ends assumed
Baseline: negative control set to 0
Reading: higher = stronger binding
Constant ends, left off below: GTGAGCGGTGCCCATTGATGGGGAAC … TTTCACTGGGATCGTGGGGAC
Strand | normalised bound fraction
GTGCAGCGCTCCTTCACAACACACACGTGAGCTGGGGCTGTAGCAGGTGGCCTGCCGACCAGCGTCTCCCCAACCCCCACAACATGCACTCAAAGTAATCTACAGCATTAGACAATTAGAAACCTACTTCCAGTCAACCTTACGCTCACTGAGGCCACTGCAGCACCGCCAGCCACGTCTCCAAAGCAGGCGA | -0.0688 ratio
AGTGCTTCATTTTTCGTGCCCGCCCCGCGCCCCGGGCAGGCCAGTCATGTGTTAAGTTGCGCTTCTTTGCTGTGATGTGGGTGGGGGAGGAAGAGTAATCTCAGTGCTGGCTCGGCTGCCCTGAGGGTGCTCAATCAAGCACAGGTTTCAAGTCTGGGTTCTGGTGTCCACTCACCCACCCCACCCCCCAAAA | -0.0519 ratio
GAAAAGTGGCCTTAAGCTTTACTTTCCTTTAGGGATACTACAGGCCTTTTGCCATTTAACAGATATAAAATGACACAGTGGTATGGAATATGCTTGTTTACATTGTACCAGTGTCCTTGCATTGAGACTTGCTGCCCATAGTACTGCTGTGACATCTGAAGCATCCCTGACTGGCCCCACTGGTTATTCTTCT | 0.408 ratio
TCTCCTGGCAACTGTGCAGCTCCACTCTGCACCCTTGGTTTATCCTTCCTGTTTCCTCACTTATCAAATATTTATTGTCAACAACGGGCAGTTCTGTTTGCACACAGTGTGATGGGGTAATGAGATAGTTAGGTTTCCTCCTGTTATTGATGGGGAGTGCTGATGGCATGAATAATTTCCTCTTTTTATAAAT | 0.286 ratio
ATCCTGTAGCCTCAGGGCTCTGACGTAAGCCACTTATCCTTGGGAAACATTTAGGTAAATATCACAGCTGATGTTGCAATTGTGCTCAAAGAATGTTTGCATTTCATAAAAGAGGAGACTCCTAGACACTAACACCCTAATCCACAAGGAATGCTCCCACATGCAGACATTTGGATACCTGCAAATAACAAGG | 0.364 ratio

Repeated from above (block 3):
Modification | mean fluorescence intensity [a.u.]
2'F-ANA at 1 2 3 4 5 9 10 13 14 15 | 48.7
2'F-ANA at 1 3 4 5 6 7 8 12 15 | 118
2'F-ANA at 1 2 4 11 13 15 | 79.6
